Published values of several laboratories.
Each line is one published result; not all experiments were run side by side. Non-standard residues stand in square brackets, D forms with d. Square brackets hold non-standard residues; d marks the D form. Ends that are not written are not given here. No end group written: not given here.
B1: Il22 34-179 E43H/S45R/Q49S/N68Q/N97Q/Q116W/Q128K (Mus musculus, UniProt Q9JJY9); sequence looked up; chain LPVNTRCKLHVRNFQSPYIVNRTFMLAKEASLADQNTDVRLIGEKLFRGVSAKDQCYLMKQVLQFTLEDVLLPQSDRFQPYMWEVVPFLTKLSNKLSSCHISGDDQNIQKNVRRLKETVKKLGESGEIKAIGELDLLFMSLRNACV
B2: CSM1 (Saccharomyces cerevisiae, UniProt P25651); sequence looked up; chain MDPLTVYKNSVKQQIDSADLLVANLVNENFVLSEKLDTKATEIKQLQKQIDSLNAQVKELKTQTSQQAENSEVIKDLYEYLCNVRVHKSYEDDSGLWFDISQGTHSGGSSDDYSIMDYKLGFVKGQAQVTEVIYAPVLKQRSTEELYSLQSKLPEYLFETLSFPLSSLNQFYNKIAKSLNKKREKKDETE
B3: ACAT1 (Homo sapiens, UniProt P24752); sequence looked up; chain VSKPTLKEVVIVSATRTPIGSFLGSLSLLPATKLGSIAIQGAIEKAGIPKEEVKEAYMGNVLQGGEGQAPTRQAVLGAGLPISTPCTTINKVCASGMKAIMMASQSLMCGHQDVMVAGGMESMSNVPYVMNRGSTPYGGVKLEDLIVKDGLTDVYNKIHMGSCAENTAKKLNIARNEQDAYAINSYTRSKAAWEAGKFGNEVIPVTVTVKGQPDVVVKEDEEYKRVDFSKVPKLKTVFQKENGTVTAANASTLNDGAAALVLMTADAAKRLNVTPLARIVAFADAAVEPIDFPIAPVYAASMVLKDVGLKKEDIAMWEVNEAFSLVVLANIKMLEIDPQKVNINGGAVSLGHPIGMSGARIVGHLTHALKQGEYGLASICNGGGGASAMLIQKL
B4: PUM1 589-827 (Homo sapiens, UniProt Q14671); sequence looked up; chain ISSSAAQAAVAAAAASANGAAGGLAGTTNGPFRPLGTQQPQPQPQQQPNNNLASSSFYGNNSLNSNSQSSSLFSQGSAQPANTSLGFGSSSSLGATLGSALGGFGTAVANSNTGSGSRRDSLTGSSDLYKRTSSSLTPIGHSFYNGLSFSSSPGPVGMPLPSQGPGHSQTPPPSLSSHGSSSSLNLGGLTNGSGRYISAAPGAEAKYRSASSASSLFSPSSTLFSSSRLRYGMSDVMPS
B5: TIF4631 572-853 K590R (Saccharomyces cerevisiae, UniProt P39935); sequence looked up; chain LVPSANRWVPKFKSKKTERKLAPDGKTELLDKDEVERKMKSLLNKLTLEMFDAISSEILAIANISVWETNGETLKAVIEQIFLKACDEPHWSSMYAQLCGKVVKELNPDITDETNEGKTGPKLVLHYLVARCHAEFDKGWTDKLPTNEDGTPLEPEMMSEEYYAAASAKRRGLGLVRFIGFLYRLNLLTGKMMFECFRRLMKDLTDSPSEETLESVVELLNTVGEQFETDSFRTGQATLEGSQLLDSLFGILDNIIQTAKISSRIKFKLIDIKELRHDKNWN
B6: TIM8/TIM13 hetero-hexamer K30F/S36L (Saccharomyces cerevisiae); chain 1 MSSLSTSDLASLDDTSKKEIATFLEGENSFQKVQMLIHQFTNICFKKCVESVNDSNLSSQEEQCLSNCVNRFLDTNIRIVNGLQNTR; chain 2 GGLSSIFGGGAPSQQKEAATTAKTTPNPIAKELKNQIAQELAVANATELVNKISENCFEKCLTSPYATRNDACIDQCLAKYMRSWNVISKAYISRIQNASASGEI
B7: MMADHC 116-296 (Homo sapiens, UniProt Q9H3L0); sequence looked up; chain MAQYVNEFQGNDAPVEQEINSAETYFESARVECAIQTCPELLRKDFESLFPEVANGKLMILTVTQKTKNDMTVWSEEVEIEREVLLEKFINGAKEICYALRAEGYWADFIDPSSGLAFFGPYTNNTLFETDERYRHLGFSVDDLGCCKVIRHSLWGTHVVVGSIFTNATPDSHIMKKLSGN
B8: S100A8 1-93 C42S (Homo sapiens, UniProt P05109); chain MLTELEKALNSIIDVYHKYSLIKGNFHAVYRDDLKKLLETESPQYIRKKGADVWFKELDINTDGAVNFQEFLILVIKMGVAAHKKSHEESHKE
B9: ARR1 235-296 (Arabidopsis thaliana, UniProt Q940D0-2); sequence looked up; chain LKKPRVVWSVELHQQFVAAVNQLGVEKAVPKKILELMNVPGLTRENVASHLQKYRIYLRRLG
B10: Nup62 331-525 (Rattus norvegicus, UniProt P17955); chain MTYAQLESLINKWSLELEDQERHFLQQATQVNAWDRTLIENGEKITSLHREVEKVKLDQKRLDQELDFILSQQKELEDLLSPLEESVKEQSGTIYLQHADEEREKTYKLAENIDAQLKRMAQDLKDIIEHLNMAGGPADTSDPLQQICKILNAHMDSLQWVDQSSALLQRRVEEASRVCESRRKEQERSLRIAFD
UniProt P48735, sequence (whole entry, unmodified, looked up): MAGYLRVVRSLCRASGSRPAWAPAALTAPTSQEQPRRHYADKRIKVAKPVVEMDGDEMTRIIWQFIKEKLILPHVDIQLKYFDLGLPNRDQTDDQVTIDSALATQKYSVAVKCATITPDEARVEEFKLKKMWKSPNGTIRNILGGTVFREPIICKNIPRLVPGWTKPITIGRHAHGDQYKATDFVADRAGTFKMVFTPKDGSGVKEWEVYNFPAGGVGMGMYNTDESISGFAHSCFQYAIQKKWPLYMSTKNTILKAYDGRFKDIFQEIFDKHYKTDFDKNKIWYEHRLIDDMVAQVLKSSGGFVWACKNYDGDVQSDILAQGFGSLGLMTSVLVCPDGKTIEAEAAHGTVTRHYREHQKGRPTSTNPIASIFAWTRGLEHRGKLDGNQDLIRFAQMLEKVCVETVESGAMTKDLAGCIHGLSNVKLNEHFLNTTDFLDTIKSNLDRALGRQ
UniProt P70582, sequence (whole entry, looked up): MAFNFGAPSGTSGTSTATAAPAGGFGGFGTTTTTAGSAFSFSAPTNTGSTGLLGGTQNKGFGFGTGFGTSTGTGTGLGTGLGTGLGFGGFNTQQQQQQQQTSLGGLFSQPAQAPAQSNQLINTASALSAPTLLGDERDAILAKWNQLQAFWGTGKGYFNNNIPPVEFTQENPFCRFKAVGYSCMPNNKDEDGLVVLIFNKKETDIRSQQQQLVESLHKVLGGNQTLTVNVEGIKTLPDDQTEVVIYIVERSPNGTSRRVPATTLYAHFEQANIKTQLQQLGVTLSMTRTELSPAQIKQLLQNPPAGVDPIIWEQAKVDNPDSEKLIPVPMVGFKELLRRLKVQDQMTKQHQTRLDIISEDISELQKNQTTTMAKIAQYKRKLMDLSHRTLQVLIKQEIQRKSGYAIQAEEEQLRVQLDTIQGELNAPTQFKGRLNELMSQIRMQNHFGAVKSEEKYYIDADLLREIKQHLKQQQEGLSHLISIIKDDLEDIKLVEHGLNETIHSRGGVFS
UniProt Q07955, sequence (whole entry, looked up): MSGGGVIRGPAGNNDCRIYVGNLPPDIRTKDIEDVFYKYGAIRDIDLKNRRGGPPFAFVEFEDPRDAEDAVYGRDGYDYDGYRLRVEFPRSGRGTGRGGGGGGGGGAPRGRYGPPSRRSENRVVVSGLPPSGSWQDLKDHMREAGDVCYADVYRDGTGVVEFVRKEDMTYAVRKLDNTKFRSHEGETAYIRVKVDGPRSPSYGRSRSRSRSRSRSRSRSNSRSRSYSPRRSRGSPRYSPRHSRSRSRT
UniProt P32897, sequence (whole entry, unmodified, looked up): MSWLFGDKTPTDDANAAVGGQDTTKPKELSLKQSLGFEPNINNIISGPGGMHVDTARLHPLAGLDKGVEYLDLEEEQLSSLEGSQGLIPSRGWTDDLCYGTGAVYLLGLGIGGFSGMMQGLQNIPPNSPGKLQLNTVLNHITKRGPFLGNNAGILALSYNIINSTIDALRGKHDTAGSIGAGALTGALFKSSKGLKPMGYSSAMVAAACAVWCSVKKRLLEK
UniProt Q99707, sequence (whole entry, unmodified, looked up): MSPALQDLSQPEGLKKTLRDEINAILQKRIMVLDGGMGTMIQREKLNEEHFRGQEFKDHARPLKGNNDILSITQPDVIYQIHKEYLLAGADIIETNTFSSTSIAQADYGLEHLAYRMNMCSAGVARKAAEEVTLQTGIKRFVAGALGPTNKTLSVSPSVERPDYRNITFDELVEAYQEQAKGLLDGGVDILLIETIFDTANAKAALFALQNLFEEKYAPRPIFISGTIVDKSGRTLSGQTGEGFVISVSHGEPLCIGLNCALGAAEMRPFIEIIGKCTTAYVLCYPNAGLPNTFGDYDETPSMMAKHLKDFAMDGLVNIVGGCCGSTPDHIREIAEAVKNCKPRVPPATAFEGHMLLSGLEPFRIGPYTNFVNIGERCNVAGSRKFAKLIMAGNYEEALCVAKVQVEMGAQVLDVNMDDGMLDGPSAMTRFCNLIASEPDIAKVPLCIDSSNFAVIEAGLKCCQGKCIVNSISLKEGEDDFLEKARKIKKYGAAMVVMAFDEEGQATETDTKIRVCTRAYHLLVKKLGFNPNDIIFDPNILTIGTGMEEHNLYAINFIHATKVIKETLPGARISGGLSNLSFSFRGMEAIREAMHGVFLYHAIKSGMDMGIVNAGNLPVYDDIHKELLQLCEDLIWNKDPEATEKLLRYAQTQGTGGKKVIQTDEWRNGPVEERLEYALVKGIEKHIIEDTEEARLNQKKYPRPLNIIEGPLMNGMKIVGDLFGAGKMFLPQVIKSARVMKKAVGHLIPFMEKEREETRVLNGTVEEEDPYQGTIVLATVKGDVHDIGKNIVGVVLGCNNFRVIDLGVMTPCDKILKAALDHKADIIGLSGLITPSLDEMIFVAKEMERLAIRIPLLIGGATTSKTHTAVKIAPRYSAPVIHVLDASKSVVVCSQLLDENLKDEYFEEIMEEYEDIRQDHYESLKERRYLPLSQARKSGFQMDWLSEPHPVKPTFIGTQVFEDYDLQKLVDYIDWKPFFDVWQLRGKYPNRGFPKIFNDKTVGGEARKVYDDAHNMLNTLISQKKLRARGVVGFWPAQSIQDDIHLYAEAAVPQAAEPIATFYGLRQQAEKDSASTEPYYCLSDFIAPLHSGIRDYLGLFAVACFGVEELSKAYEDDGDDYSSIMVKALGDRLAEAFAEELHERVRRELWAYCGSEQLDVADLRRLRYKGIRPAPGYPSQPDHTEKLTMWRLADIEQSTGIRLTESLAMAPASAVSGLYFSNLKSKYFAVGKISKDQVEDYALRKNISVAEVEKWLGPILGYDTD
UniProt Q80XZ4, sequence (whole entry, unmodified, looked up): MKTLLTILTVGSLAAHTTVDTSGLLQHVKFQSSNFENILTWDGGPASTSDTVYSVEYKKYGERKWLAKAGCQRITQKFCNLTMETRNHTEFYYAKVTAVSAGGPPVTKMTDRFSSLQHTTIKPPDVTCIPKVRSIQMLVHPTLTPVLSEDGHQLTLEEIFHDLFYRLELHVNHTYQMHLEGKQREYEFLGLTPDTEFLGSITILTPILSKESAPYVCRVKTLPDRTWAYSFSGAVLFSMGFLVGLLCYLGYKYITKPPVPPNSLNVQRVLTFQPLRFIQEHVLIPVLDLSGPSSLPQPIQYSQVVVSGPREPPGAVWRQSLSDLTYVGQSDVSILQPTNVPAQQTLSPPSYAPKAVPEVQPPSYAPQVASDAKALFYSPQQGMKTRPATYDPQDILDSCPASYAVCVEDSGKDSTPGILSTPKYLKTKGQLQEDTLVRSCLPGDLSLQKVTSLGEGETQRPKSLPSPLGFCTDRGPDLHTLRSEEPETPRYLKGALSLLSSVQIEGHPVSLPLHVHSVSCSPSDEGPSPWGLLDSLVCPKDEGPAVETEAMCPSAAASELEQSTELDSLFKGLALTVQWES
UniProt P06702, sequence (whole entry, unmodified, looked up): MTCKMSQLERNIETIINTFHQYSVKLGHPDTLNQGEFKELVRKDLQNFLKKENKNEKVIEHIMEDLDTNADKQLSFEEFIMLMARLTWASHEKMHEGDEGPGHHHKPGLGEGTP
UniProt P13393, sequence (whole entry, looked up): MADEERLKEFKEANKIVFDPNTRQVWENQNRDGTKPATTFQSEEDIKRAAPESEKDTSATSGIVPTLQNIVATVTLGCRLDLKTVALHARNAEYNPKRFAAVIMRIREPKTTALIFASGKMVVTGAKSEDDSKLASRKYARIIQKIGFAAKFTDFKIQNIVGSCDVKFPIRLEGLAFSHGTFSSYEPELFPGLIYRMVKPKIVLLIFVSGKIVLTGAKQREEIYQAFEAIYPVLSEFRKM
UniProt P10081, sequence (whole entry, unmodified, looked up): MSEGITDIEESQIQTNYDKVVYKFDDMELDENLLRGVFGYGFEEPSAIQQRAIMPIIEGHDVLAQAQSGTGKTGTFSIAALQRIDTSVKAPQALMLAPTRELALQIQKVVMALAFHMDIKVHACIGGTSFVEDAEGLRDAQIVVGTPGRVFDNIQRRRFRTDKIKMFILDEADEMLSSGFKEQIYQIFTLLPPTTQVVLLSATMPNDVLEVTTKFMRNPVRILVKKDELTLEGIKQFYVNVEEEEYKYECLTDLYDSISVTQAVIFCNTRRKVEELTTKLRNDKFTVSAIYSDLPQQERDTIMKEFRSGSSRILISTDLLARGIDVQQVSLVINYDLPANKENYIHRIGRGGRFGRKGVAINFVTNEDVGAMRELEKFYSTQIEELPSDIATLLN
UniProt Q80TS7, sequence (whole entry, looked up): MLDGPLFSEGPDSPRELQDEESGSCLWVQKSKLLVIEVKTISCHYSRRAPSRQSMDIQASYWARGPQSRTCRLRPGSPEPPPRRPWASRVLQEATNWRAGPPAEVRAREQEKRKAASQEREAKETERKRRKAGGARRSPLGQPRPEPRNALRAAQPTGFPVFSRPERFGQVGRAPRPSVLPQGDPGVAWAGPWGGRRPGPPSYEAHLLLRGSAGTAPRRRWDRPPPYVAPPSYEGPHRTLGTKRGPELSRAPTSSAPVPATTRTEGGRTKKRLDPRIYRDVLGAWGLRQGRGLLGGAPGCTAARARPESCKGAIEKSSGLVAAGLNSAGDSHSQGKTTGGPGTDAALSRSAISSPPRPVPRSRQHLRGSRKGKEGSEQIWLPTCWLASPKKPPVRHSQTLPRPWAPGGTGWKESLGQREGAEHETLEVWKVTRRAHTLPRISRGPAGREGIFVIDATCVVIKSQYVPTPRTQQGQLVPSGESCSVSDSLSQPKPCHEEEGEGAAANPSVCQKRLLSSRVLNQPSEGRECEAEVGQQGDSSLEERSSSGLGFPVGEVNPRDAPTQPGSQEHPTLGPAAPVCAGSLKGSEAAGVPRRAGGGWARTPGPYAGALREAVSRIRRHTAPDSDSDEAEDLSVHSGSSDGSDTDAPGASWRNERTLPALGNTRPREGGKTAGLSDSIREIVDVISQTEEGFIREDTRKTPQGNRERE

Molecule | partner | assay | system | conditions | binding
SKDRKRHRSRDRRRGGSRSRSRSRSKSAERERRHKER (DDX23 41-77 (Homo sapiens, UniProt Q9BUQ8)) | SRSF1, RS domain phosphorylated (Homo sapiens, UniProt Q07955) | pull-down | – | – | binds
SPT15, fluorescein label (Saccharomyces cerevisiae, UniProt P13393) | SAGA complex (Saccharomyces cerevisiae, UniProt P38811) | native gel or EMSA | – | – | binds
B1 | Il22ra1 16-228 N80D/N87D/T89Q (Mus musculus, UniProt Q80XZ4) | crystal structure | – | – | binds
B2 (CSM1) | MTW1/NSL1/NNF1/DSN1 MIND complex (Saccharomyces cerevisiae) | pull-down | – | – | binds
prf1 aRF1 (Aeropyrum pernix, UniProt Q9YAF1) | tuf 7-437 K99A/R309A (Aeropyrum pernix, UniProt Q9YAV0) | pull-down | – | – | binds
B3 (ACAT1) | IDH2 R140Q/K413R, tyrosine phosphorylated (Homo sapiens, UniProt P48735) | co-IP | – | – | binds
PPPYVAPPSYEG (Ddn 224-235 (Mus musculus, UniProt Q80TS7); sequence looked up) | Sav1 198-271 (Mus musculus, UniProt Q8VEB2) | crystal structure | peptide | – | binds
B4 (PUM1 589-827) | CNOT1/CNOT2/CNOT3 NOT module 1833-2361 (Homo sapiens) | pull-down | – | – | binds
B5 (TIF4631 572-853 K590R) | TIF1 Q186C/E305C, Alexa488/Alexa546 labels (Saccharomyces cerevisiae, UniProt P10081) | conformation of molecule, smFRET | – | – | binds
B6 | TIM23 C98S/C209S/C213A (Saccharomyces cerevisiae, UniProt P32897) | pull-down | – | – | binds
SLINKSKSSMF (CD36 residues 160-170 (Homo sapiens)) | ALB, CEP-modified (Homo sapiens, UniProt P02768) | competition with ligand, SPR | peptide | – | binds
{VPS26(1–321)}-TAQPELYL[SeMet]NT[SeMet] (SLC11A2 549-560 L557M (Homo sapiens, UniProt P49281); SeMet = C[Se]CC[C@H](N)C(=O)O; sequence looked up) | VPS26A fragment (Homo sapiens) | crystal structure | peptide | – | binds
B7 (MMADHC 116-296) | MTR 661-1265 (Homo sapiens, UniProt Q99707) | native gel | – | 5 min, pH 8.3, 4 °C | binds
B8 (S100A8 1-93 C42S) | S100A9 1-114 C3S/H103A/H105A/K106H (Homo sapiens, UniProt P06702) | SEC | – | without Ca2+ | binds
MPAFLDHILNKFWILHYAGSGSSG (SPAM peptide I3A; peptide-RNA fusion) | CD274 ectodomain (Homo sapiens) | radioligand binding | peptide | 1 h, 4 °C | binds
B9 (ARR1 235-296) | ARR1 31-158 (Arabidopsis thaliana, UniProt Q940D0-2) | crystal structure | – | – | binds
MPIFADHILNKFWILHYAGSGSSG (SPAM peptide L5A; peptide-RNA fusion) | CD274 ectodomain (Homo sapiens) | radioligand binding | peptide | 1 h, 4 °C | binds
Ac-FTTVDFSSIS[pT]PHYEDIPFTRT (PPARG residues 65-86 (Homo sapiens); N-acetyl, pT75; pT = C[C@@H](OP(=O)(O)O)[C@H](N)C(=O)O) | PIN1 (Homo sapiens, UniProt Q13526) | NMR | peptide | – | binds
B10 (Nup62 331-525) | Nup54 (Rattus norvegicus, UniProt P70582) | far-Western blot | partially purified complex | – | binds

A few entries again:
Molecule | partner | assay | system | conditions | binding
SLINKSKSSMF (CD36 residues 160-170 (Homo sapiens)) | ALB, CEP-modified (Homo sapiens, UniProt P02768) | competition with ligand, SPR | peptide | – | binds
